Assay results from different studies.
Lines come from different studies, so protocols differ. ± gives the spread as reported.
B1: acpP (Escherichia coli, UniProt P0A6A8); phosphopantetheine crosslinker on serine; sequence looked up; chain MSTIEERVKKIIGEQLGVKQEEVTNNASFVEDLGADSLDTVELVMALEEEFDTEIPDEEAEKITTVQAAIDYINGHQA
B2: FGL1 fibrinogen-like domain 58-312 (Homo sapiens, UniProt Q08830); sequence looked up; chain NEVQFLDKGDENTVIDLGSKRQYADCSEIFNDGYKLSGFYKIKPLQSPAEFSVYCDMSDGGGWTVIQRRSDGSENFNRGWKDYENGFGNFVQKHGEYWLGNKNLHFLTTQEDYTLKIDLADFEKNSRYAQYKNFKVGDEKNFYELNIGEYSGTAGDSLAGNFHPEVQWWASHQRMKFSTWDRDHDNYEGNCAEEDQSGWWFNRCHSANLNGVYYSGPYTAKTDNGIVWYTWHGWWYSLKSVVMKIRPNDFIPNVI
B3: LY96 LOS-bound (Homo sapiens, UniProt Q9Y6Y9); sequence looked up; chain QKQYWVCNSSDASISYTYCDKMQYPISINVNPCIELKRSKGLLHIFYIPRRDLKQLYFNLYITVNTMNLPKRKEVICRGSDDDYSFCRALKGETVNTTISFSFKGIKFSKGKYKCVVEAISGSPEEMLFCLEFVILHQPNSN
UniProt P0CH43, sequence (whole entry, looked up): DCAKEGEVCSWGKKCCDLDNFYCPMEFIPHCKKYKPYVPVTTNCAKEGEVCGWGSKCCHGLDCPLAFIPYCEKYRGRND
UniProt P0AAI5, sequence (whole entry, looked up): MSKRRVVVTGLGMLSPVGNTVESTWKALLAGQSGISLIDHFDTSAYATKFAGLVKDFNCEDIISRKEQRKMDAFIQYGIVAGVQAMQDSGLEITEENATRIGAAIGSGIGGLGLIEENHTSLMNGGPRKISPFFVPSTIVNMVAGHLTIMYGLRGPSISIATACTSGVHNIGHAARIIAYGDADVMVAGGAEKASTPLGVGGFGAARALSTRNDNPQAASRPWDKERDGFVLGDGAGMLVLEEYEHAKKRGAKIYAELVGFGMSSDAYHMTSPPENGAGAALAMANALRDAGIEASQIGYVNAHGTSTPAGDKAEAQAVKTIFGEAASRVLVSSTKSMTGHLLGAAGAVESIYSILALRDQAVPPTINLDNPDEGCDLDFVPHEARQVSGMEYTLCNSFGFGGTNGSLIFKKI
UniProt Q9QUK6, sequence (whole entry, looked up): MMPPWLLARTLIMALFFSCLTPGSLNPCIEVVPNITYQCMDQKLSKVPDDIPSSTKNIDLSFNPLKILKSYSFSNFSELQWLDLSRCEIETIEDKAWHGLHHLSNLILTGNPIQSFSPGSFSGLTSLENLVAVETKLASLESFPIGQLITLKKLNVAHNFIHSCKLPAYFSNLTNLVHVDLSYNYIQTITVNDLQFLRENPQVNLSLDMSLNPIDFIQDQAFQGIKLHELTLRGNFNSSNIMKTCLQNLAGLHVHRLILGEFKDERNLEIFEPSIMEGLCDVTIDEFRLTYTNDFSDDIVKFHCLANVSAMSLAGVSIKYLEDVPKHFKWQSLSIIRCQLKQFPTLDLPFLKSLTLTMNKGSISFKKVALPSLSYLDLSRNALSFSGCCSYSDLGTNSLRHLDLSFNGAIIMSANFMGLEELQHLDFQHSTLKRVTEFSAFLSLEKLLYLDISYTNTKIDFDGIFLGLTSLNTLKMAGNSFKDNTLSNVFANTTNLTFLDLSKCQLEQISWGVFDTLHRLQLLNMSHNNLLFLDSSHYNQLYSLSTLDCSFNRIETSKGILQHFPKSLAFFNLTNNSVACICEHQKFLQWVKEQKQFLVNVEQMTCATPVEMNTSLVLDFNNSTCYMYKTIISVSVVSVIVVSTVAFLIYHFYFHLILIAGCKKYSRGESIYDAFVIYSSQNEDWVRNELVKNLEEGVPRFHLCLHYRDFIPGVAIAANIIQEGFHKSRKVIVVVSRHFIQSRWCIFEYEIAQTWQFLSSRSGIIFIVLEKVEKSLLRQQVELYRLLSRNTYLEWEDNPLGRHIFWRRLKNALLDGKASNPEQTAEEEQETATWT

| Substance | partner | test | test system | setting | scale | measurement | result |
| --- | --- | --- | --- | --- | --- | --- | --- |
| protein (Streptomyces exfoliatus, UniProt O87916) | PBP2a residues 41-end (Staphylococcus aureus) | ITC | – | – | – | Kd | 244 nM |
| Z13e1 Fab (human) | env peptide residues 668-683 (HIV-1) | ITC | – | 303 K, single-site model | – | ΔH | -15.7 kcal/mol |
| B1 (acpP) | fabF (Escherichia coli, UniProt P0AAI5) | cross-linking | – | 1 h, pH 7.0, 37 °C | – | binding | binds |
| DkTx (UniProt P0CH43) | Trpv1 A657P (Rattus norvegicus, UniProt O35433) | channel activation | – | – | reference: wild type channel, higher = weaker potency | potency drop | 100 fold |
| JIP-1 peptide fragment L150R, 6-aminohexanoyl linker to inverted TAT | Mapk14 (Mus musculus, UniProt P47811-1) | D-site substrate peptide phosphorylation, inhibitor, in vitro kinase assay | – | 10 nM, control peptide, point mutant, together with: substrate peptide 10 µM | – | IC50 | 447000 nM |
| Retatrutide | GLP1R (Homo sapiens, UniProt P43220) | β-arrestin-2 recruitment, BRET | HEK293T | – | reference: GLP-1, higher = stronger response | maximal response | 58 % GLP-1 |
| B2 | LAG3 extracellular domain (Homo sapiens) | SPR | – | 20 °C | – | Kd | 3200 nM |
| SKA1 fragment (Homo sapiens) (sequence not shown) | TUBA1B/TUBB2B taxol-stabilized microtubules | co-sedimentation | – | KCl 75 mM, apparent | – | Kd | 2500 nM |
| B3 (LY96 LOS-bound) | Tlr4 (Mus musculus, UniProt Q9QUK6) | radioligand binding | HEK293 expressing TLR4 | 30 min, pH 7.4, 37 °C, Scatchard analysis, in cells | – | Kd | 0.572 ± 0.015 nM |

A few entries again:
| Substance | partner | test | test system | setting | scale | measurement | result |
| --- | --- | --- | --- | --- | --- | --- | --- |
| JIP-1 peptide fragment L150R, 6-aminohexanoyl linker to inverted TAT | Mapk14 (Mus musculus, UniProt P47811-1) | D-site substrate peptide phosphorylation, inhibitor, in vitro kinase assay | – | 10 nM, control peptide, point mutant, together with: substrate peptide 10 µM | – | IC50 | 447000 nM |
